Results of several laboratories.
Every numbered part comes from another study and shows a few of its results, in no order.

Study 1 — method: RNA Bind-n-Seq; molecule type: RNA; medium: in vitro; concentration: not given; notes: RNA with constant flanks, ends assumed; relative to: input RNA pool; reading: higher = stronger binding
Target: RING finger protein unkempt homolog, zinc fingers 1-6, GST-SBP tag (UNK, Homo sapiens, UniProt Q9C0B0, residues 30-357)
UniProt Q9C0B0, sequence (30-357, looked up): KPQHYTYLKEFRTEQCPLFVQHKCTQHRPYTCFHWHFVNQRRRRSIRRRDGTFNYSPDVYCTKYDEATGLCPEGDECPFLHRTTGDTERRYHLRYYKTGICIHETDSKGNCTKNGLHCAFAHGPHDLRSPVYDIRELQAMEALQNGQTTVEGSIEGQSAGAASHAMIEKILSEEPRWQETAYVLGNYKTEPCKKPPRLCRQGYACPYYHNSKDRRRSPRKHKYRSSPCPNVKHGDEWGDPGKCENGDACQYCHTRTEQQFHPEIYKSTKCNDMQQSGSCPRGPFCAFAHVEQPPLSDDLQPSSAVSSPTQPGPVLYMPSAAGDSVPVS
`GGGAGUUCUACAGUCCGACGAUCGCGAUAUCAAACAGAACUAUCUGGAAGCAUUUACUUCCAAUCCAAAACGGAGCUUUGUCCCGUGCUUGUCACAAAUCCACAUACUCUUCUCUUCCGGAUGACUACAAUUGCCAGGUGGACCAACAGAGGAUUGAGCAUCA` gave a bound/input enrichment of 0.192 ratio.
For `GGGAGUUCUACAGUCCGACGAUCAAUAACAGGGCCAGGCACAGGGCCAAGCGAGAAGCUUGCAUUGAUUUCAUGCCUGGGUCUACCGAUGUAAUUAAAAAAGAGUCCUGUUUCUGGCCUGAAGAAAAUGCUAAUACCUUUUCACAACAGAGGAUUGAGCAUCA`, the bound/input enrichment was 0.135 ratio.
`GGGAGUUCUACAGUCCGACGAUCCCCCACCCCUUUGCCUCUUUCCACCCGGGCCUCAACCCUUUGGAGCGGGAGAGACUGGCACCCGCAGGUCCUCAGCUGCGGCCUGAGAUGAGUUACCCAGACAGACUGGCAGCCGAGCGCCAACAGAGGAUUGAGCAUCA` has a bound/input enrichment of 0.343 ratio.
With `GGGAGUUCUACAGUCCGACGAUCGAACUGGUGGACUACAUUACAAUAAGCAGAGGCUGUUUGACAGAGCAGACUUACCCUGAAGCCGUCCGAAUGGUAUCUUGCAAUAUAUUCAGAACUCUCCCUCCUAGUGACAGCAAUGAACAACAGAGGAUUGAGCAUCA` the bound/input enrichment was 0.268 ratio.

Study 2 — method: protein-binding microarray; molecule type: double-stranded DNA, one strand shown; medium: in vitro; concentration: 2200 nM top; notes: 60-bp whole probe; with: salmon DNA 0.4 mg/ml; relative to: random background probes; reading: higher = stronger binding
Target: Interferon regulatory factor 7, full length, phosphomimetic (IRF7, Homo sapiens, UniProt Q92985, residues 1-503, S471D/S472D/S475D/S476D/S477D/S483D/S484D/S487D)
Constant ends, left off below: GCCTAGCAC … GTGCTAGGTCTTGATTCGCTTGACGCTGCTG
Target sequence (chain): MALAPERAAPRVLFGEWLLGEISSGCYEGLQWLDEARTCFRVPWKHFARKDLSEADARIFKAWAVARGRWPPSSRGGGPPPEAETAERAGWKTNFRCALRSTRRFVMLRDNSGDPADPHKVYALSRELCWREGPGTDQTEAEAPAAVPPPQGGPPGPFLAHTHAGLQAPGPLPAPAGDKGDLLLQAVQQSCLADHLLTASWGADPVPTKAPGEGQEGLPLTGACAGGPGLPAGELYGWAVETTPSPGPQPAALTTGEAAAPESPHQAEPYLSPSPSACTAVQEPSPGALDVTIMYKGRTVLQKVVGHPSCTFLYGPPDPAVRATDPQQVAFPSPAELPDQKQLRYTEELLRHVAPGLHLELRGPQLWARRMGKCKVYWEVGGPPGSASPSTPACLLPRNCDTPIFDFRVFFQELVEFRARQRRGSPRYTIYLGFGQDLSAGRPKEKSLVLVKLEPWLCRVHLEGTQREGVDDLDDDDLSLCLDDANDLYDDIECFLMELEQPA
For `TTAGTTTTCAGTTTCGATTA`, “fitted relative affinity” read 10.6 z-score.
Under “fitted relative affinity”, `TTCGGTATCCTTCTCCTTTA` is recorded as 2.38 z-score.
`TTAGATTTCATTTCCGATTA` — result for “fitted relative affinity”: 2.68 z-score.
For `GACGGCCTGCTACTGCTGAC`, “fitted relative affinity” read -0.447 z-score.
For `GACTGTTTCCTTATCCTGAC`, “fitted relative affinity” read 3.12 z-score.

Study 3 — method: universal PBM; molecule type: double-stranded DNA, one strand shown; medium: in vitro; concentration: not given; reading: higher = stronger binding
Target: Sal-like protein 4, full length isoform B (SALL4, Homo sapiens, UniProt Q9UJQ4-2, residues 1-616)
Notes: 8-mer, flanks averaged, mean of replicates
For `ATAAGGCA`, the E-score was 0.168.
`AATTTGCC` gave an E-score of 0.122.
`CTGCGTTC` gave an E-score of -0.093.
`GCAGAGCA` has an E-score of -0.0974.
`ATGGTAAT` gave an E-score of 0.332.

Single results of other studies
With `PhoQ, residues 284 288 289 292 302 303 GLASVI` the fold induction was 2.8 (PhoP, residues 12 14 15 18 19 NHFIF (Escherichia coli, UniProt P23836); Sort-seq, item: YFP reporter; E. coli; PhoQ-PhoP variant library, with: 10 µM Mg2+; relative to: high Mg2+ state, higher = stronger signaling).

For quick reference, copied from above (study 3):
For `ATAAGGCA`, the E-score was 0.168.
